Measured values collected from several papers.
Every numbered part comes from another study and shows a few of its results, in no order. Changes are numbered by the printed parent chain.

Block 1 — partner: ORF66; technique: pull-down; baseline: wild-type ORF34; direction: higher = more binding
| Molecule | relative binding |
| --- | --- |
| ORF34 C175A (Kaposi's sarcoma-associated herpesvirus) | 0.039 |
| ORF34 G182A (Kaposi's sarcoma-associated herpesvirus) | 0.359 |
| ORF34 Y215A (Kaposi's sarcoma-associated herpesvirus) | 0.167 |
| ORF34 W160A (Kaposi's sarcoma-associated herpesvirus) | 0.289 |
| ORF34 V50A (Kaposi's sarcoma-associated herpesvirus) | 1.11 |

Other studies, line by line — BFA1: BFA1 (Saccharomyces cerevisiae)
B1: USP7 catalytic domain 207-560 (Homo sapiens, UniProt Q93009); chain SKKHTGYVGLKNQGATCYMNSLLQTLFFTNQLRKAVYMMPTEGDDSSKSVPLALQRVFYELQHSDKPVGTKKLTKSFGWETLDSFMQHDVQELCRVLLDNVENKMKGTCVEGTIPKLFRGKMVSYIQCKEVDYRSDRREDYYDIQLSIKGKKNIFESFVDYVAVEQLDGDNKYDAGEHGLQEAEKGVKFLTLPPVLHLQLMRFMYDPQTDQNIKINDRFEFPEQLPLDEFLQKTDPKDPANYILHAVLVHSGDNHGGHYVVYLNPKGDGKWCKFDDDVVSRCTKEEAIEHNYGGHDDDLSVRHCTNAYMLVYIRESKLSEVLQAVTDHDIPQQLVERLQEEKRIEAQKRKERQE
P1: yEGFP-Tem1 (Saccharomyces cerevisiae); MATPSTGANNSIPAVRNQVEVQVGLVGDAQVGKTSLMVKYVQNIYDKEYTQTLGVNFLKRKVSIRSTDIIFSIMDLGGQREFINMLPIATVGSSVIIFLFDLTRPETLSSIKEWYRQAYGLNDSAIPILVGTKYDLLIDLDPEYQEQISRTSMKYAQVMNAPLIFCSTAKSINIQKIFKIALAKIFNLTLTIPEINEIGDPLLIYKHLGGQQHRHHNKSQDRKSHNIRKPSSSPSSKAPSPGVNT; partner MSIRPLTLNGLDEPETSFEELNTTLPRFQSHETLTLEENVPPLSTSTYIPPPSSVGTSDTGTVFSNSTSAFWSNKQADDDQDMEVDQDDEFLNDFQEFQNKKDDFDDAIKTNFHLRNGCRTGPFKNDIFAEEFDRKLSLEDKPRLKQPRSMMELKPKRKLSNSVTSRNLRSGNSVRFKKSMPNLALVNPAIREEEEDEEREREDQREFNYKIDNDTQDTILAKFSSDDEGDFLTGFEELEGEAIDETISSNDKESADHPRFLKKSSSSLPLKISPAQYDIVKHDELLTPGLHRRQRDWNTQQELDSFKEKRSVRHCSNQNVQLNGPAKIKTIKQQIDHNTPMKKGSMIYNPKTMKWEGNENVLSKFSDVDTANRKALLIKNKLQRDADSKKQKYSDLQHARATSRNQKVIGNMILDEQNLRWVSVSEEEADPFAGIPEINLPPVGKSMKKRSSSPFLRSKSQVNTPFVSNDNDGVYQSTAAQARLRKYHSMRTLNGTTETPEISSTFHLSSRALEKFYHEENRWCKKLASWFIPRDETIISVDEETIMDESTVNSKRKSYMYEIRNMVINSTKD
B2: enzyme N77A (Streptomyces parvus, UniProt A0A7K3RVR3); chain MYVPEQYRPRDASWTLELIRSNPLALLVTNGPQHPWATHVPVLFAEEPDGPEGPDGLDATGDDLVGRRLLGHLNLMAPHWEALAGAGHALLVFQGPGSYVSPTVYETAPAAPTWDFTSVHVHGALRLIDDPDDLRKIVQATVRAYEREVGTDWDMSESLEYFERLLPGVRGFEIKIESVDSMFKLSQEQLPETVTKVIDSFRRSDGGRRQELATMIERAASD
| Molecule | target or system | assay | test system | setting | how to read | endpoint | value |
| --- | --- | --- | --- | --- | --- | --- | --- |
| B1 (USP7 catalytic domain 207-560) | ubiquitin (UniProt P0CG48) | NMR | – | read off a plot | – | Kd | 160 µM |
| P1 T52A | BFA1 | co-IP | yeast | in cells | baseline: wild-type protein, higher = more binding | relative binding | 0.02 |
| AAUUUUUUAGGGAAGAUCUGGCCUUCCUACAAGGGAAGGCCAGGGAAUUUUCUUC (ssRNA (HIV-1); stem-loop) | SHFL 1-291 S256A (Homo sapiens, UniProt Q9NUL5) | BLI | folded RNA | – | – | binding | binds |
| B2 (enzyme N77A) | N[C@@H](CCCNO)C(=O)O | steady-state kinetics | – | pH 8, 25 °C, added: heme | – | kcat | 0.392 s⁻¹ |
| P1 Q79L | BFA1 | co-IP | yeast | in cells | baseline: wild-type protein, higher = more binding | relative binding | 1.6 |

For quick reference, copied from above (other studies, line by line):
| Molecule | target or system | assay | test system | setting | how to read | endpoint | value |
| --- | --- | --- | --- | --- | --- | --- | --- |
| B1 (USP7 catalytic domain 207-560) | ubiquitin (UniProt P0CG48) | NMR | – | read off a plot | – | Kd | 160 µM |
